Measurements collected from several papers.
Compare with care: the assays were run in different laboratories. Numbers after ± are the reported error.

SMILES | tested on | test | test system | setting | quantity | value
CCC(=O)N(C)c1ccc(Cl)c(Cl)c1 | Salmonella typhimurium | Ames test | TA1535 | 0.50 mg/plate, without S9 activation | revertants | 13 ± 4.6 revertants/plate
COc1cc(C(=O)NCCOCCOCCOCCNC(=O)c2ccc([18F])nc2)ccc1NC(=O)C1NC(CC(C)(C)C)C(C#N)(c2ccc(Cl)cc2F)C1c1cccc(Cl)c1F (stereo not shown) | SJSA-1 tumour model | – | host not given, brain | 1 h, tumour-bearing | tracer uptake | 0.45 %ID/g
CN[C@](C)(C[18F])C(=O)O | SK-OV-3 tumour model | – | host not given, pancreas | 30 min, tumour-bearing | tracer uptake | 38 %ID/g
C#CCCC[C@@H]1OC(=O)CNC(=O)[C@H]([C@@H](C)CC)NC(=O)[C@@H]2CCCN2C(=O)[C@H]([C@@H](C)CC)OC(=O)[C@H](Cc2ccccc2)NC(=O)[C@H](C(C)C)NC(=O)C1(C)C | HT-29 | cytotoxicity, MTT | – | 48 h, 10% fetal bovine serum | IC50 | > 100 µM
CCCCn1cc(C(=O)O)c(=O)c2cc(F)c(Nc3ccccc3Cl)c(N)c21 | HT-29 | cell growth or viability, SRB | – | – | IC50 | 95.4 µM
N=C(N)NCCC[C@@H](NC(=O)[C@H](N)Cc1c[nH]c2ccccc12)C(=O)N[C@H](CCCCN)C(=O)N[C@H](Cc1c[nH]c2ccccc12)C(=O)N[C@H](CCCNC(=N)N)C(=O)N[C@H](CCCCN)C(=O)N[C@H](Cc1c[nH]c2ccccc12)C(=O)N[C@H](CCCNC(=N)N)C(=O)N[C@H](CCCCN)C(=O)N[C@H](Cc1c[nH]c2ccccc12)C(=O)N[C@H](CCCNC(=N)N)C(=O)N[C@H](CCCCN)C(N)=O | BV-2 | cytotoxicity, MTT | – | 24 h | IC50 | 64 µM
C[C@@H]1O[C@@H](Oc2cc3c(=O)oc4c(O)c(O)cc5c(=O)oc(c2O)c3c45)[C@H](O)[C@H](OC(=O)c2cc(O)c(O)c(O)c2)[C@H]1OC(=O)c1cc(O)c(O)c(O)c1 | HUVEC | cell growth or viability, MTT | – | 48 h | IC50 | > 100 µg/mL
CC1N=C(CCCCCCCCCCC2=CC(CCCCCCCCCCC3=NC(C)C(O)CC3)C3CCCN3C2)CCC1O (stereo not shown) | PMA-differentiated THP-1 | cytotoxicity, Neutral Red | – | – | IC50 | 8.47 ± 1.32 µg/mL
CN(C)CC1CCCCC1(O)c1cccc(O)c1 (stereo not shown) | – | – | Caco-2 | 50 µM, 3 h, pH 7.4 | efflux ratio | 1.1
CCCCn1cc(C(=O)O)c(=O)c2cc(F)c(Nc3ccccc3Cl)c([N+](=O)[O-])c21 | SW480 | cell growth or viability, SRB | – | – | IC50 | 284 µM
CC[C@H](C)[C@H](NC(=O)[C@H](CCCCN)NC(=O)[C@H](CCCCN)NC(=O)[C@H](Cc1ccccc1)NC(=O)[C@H](Cc1ccccc1)NC(=O)[C@H](CCCCN)NC(=O)[C@H](CCCCN)NC(=O)[C@H](Cc1ccccc1)NC(=O)[C@H](CCCNC(=N)N)NC(=O)[C@@H](N)CCCCN)C(=O)N[C@@H](CCCCN)C(=O)N[C@@H](CCCCN)C(=O)N[C@@H](CO)C(=O)N[C@H](C(=O)N[C@@H](CCCCN)C(=O)N[C@@H](CCCCN)C(=O)N[C@@H](CCCNC(=N)N)C(=O)N[C@H](C(=O)N[C@@H](CCCCN)C(=O)N[C@@H](CCCCN)C(=O)N[C@@H](CC(C)C)C(=O)N[C@@H](Cc1ccccc1)C(=O)N[C@@H](CCCCN)C(=O)N[C@@H](CCCCN)C(=O)N1CCC[C@H]1C(=O)N[C@@H](CCCNC(=N)N)C(=O)N[C@H](C(=O)N[C@H](C(=O)N1CCC[C@H]1C(=O)N[C@H](C(=O)N[C@@H](CO)C(=O)N[C@H](C(=O)N1CCC[C@H]1C(=O)N[C@@H](Cc1ccccc1)C(=O)O)[C@@H](C)CC)[C@@H](C)CC)[C@@H](C)CC)C(C)C)C(C)C)C(C)C | L929 | cytotoxicity, MTT | – | 48 h | IC50 | > 128 µg/mL
C[C@@H]1O[C@@H](Oc2cc3c(=O)oc4c(O)c(O)cc5c(=O)oc(c2O)c3c45)[C@H](O)[C@H](O)[C@H]1OC(=O)c1cc(O)c(O)c(O)c1 | HUVEC | cell growth or viability, MTT | – | 48 h | IC50 | > 100 µg/mL
CCCCn1cc(C(=O)O)c(=O)c2cc(F)c3c(nnn3-c3cccc(Cl)c3)c21 | HT-29 | cell growth, SRB | – | 72 h | IC50 | 59.6 ± 2.49 µg/mL
